Experimental data of several laboratories.
Compare with care: the assays were run in different laboratories. “And” joins repeats or separate records; there may be more than shown. ± gives the spread as reported.
UniProt Q04206, sequence (whole entry, looked up): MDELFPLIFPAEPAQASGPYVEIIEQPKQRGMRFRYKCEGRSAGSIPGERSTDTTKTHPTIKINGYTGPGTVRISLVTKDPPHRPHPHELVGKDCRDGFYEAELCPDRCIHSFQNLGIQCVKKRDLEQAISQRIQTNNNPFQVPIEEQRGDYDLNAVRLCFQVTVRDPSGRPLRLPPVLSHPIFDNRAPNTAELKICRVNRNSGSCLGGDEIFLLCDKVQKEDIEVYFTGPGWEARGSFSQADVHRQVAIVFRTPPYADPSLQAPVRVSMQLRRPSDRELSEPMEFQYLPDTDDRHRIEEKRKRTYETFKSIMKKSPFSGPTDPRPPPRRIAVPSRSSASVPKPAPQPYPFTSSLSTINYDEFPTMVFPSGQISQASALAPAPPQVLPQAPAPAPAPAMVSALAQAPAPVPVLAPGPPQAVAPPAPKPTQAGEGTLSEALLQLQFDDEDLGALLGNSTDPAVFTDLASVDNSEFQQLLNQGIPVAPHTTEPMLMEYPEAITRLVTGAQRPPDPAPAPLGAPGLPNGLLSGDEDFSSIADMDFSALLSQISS
UniProt P61981, sequence (whole entry, looked up): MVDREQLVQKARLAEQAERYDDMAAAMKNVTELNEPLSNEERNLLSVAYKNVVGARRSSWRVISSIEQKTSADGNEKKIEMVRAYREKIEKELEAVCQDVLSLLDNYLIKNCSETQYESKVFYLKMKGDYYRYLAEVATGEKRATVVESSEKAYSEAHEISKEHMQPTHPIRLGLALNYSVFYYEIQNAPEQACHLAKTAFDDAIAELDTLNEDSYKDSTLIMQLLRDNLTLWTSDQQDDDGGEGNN

`CN(C)c1cc(NC(=O)CNC(C)(C)C)c(O)c2c1C[C@H]1C[C@H]3[C@H](N(C)C)C(O)=C(C(N)=O)C(=O)[C@@]3(O)C(O)=C1C2=O` gave an amount permeated of 1.36 nmol (starch gel membrane permeability; Gram-negative envelope surrogate; 200 µM, 30 min, pH 7.4).
`COC1CN(C(=O)c2ccc(C=O)cc2)C1` has an EC50 of > 1 mM (YWHAG/RELA, phospho-Ser45 p65 peptide (Homo sapiens, UniProt P61981+Q04206); ternary complex formation, stabilizer, fluorescence anisotropy).
`O=C(O)CCC(=O)O.[2H]C([2H])([2H])Oc1cc(C)c2[nH]ccc2c1CN1CC[C@@H](C2CC2)C[C@H]1c1ccc(C(=O)O)cc1`: “subjects with TEAE Constipation” 0% (multiple ascending dose; healthy Chinese subjects; 300 mg once daily).
For `O=C(O)CCCOc1ccc([18F])cc1-c1cc(-c2ccccc2C(F)(F)F)n(-c2ccccc2)n1`, the radioactivity uptake was 0.37 ± 0.04 SUV (gamma counting; male ddY mice, lung; intravenous, 2.1 MBq, 60 min).
`CC(C)[C@H](C(=O)Nc1ccc(C(=O)NO)cc1)c1ccccc1` has a viability of 71.1% (OCI-Ly1; 0.1 µM, 120 h).
`O=C1NCCc2nc(OCc3cccc(F)c3)ccc21` — result for “pinna reflex loss score”: 0.6 (modified Irwin test; Sprague-Dawley rat, male; oral, 100 mg/kg, 4 h; higher = stronger effect).
For `O=C(Nc1nc2cccc(-c3ccc(CN4CCS(=O)(=O)CC4)cc3)n2n1)C1CC1`, “treatment-emergent adverse events” read 5% (refers to: nausea; human rheumatoid arthritis patients; oral, 300 mg once daily, 4 weeks, regardless of relatedness).
`Cc1ccc(C(=O)N(CCCN)C(c2nc3snc(C)c3c(=O)n2Cc2ccccc2)C(C)C)cc1` (centres unmarked) — result for “grade ≥3 hypokalemia patients”: 33% (human patients; intravenous, 13 mg/day).
For `O=C(O)c1cc(O)c(O)c(O)c1`, the plasma concentration was 15.1 nM (human plasma; median, both sexes).
For `Cc1c2oc3c(C)ccc(C(=O)N[C@@H]4C(=O)N[C@H](C(C)C)C(=O)N5CCC[C@H]5C(=O)N(C)CC(=O)N(C)[C@@H](C(C)C)C(=O)O[C@@H]4C)c3nc-2c(C(=O)N[C@@H]2C(=O)N[C@H](C(C)C)C(=O)N3CCC[C@H]3C(=O)N(C)CC(=O)N(C)[C@@H](C(C)C)C(=O)O[C@@H]2C)c(N)c1=O`, “minimum plasma concentration” read 1.4 µg/L (LC-MS; children with cancer, plasma; dose not given, 2 h).
`COc1cc2c(cc1-c1c(C)noc1C)ncc1[nH]c(=O)n([C@H](C)c3ccccn3)c12` gave a viability of 25.4% (OCI-Ly1; 1 µM, 120 h).
For `Cc1ccc(Sc2ccccc2N2CCNCC2)c(C)c1`, “participants with TEAE” read 0% (refers to: metrorrhagia; healthy adult women; oral, 5 mg daily, 12 days).
`CCc1c(-c2ccccc2)c(-c2ccccc2)nn1-c1ccccc1-c1cccc(OCC(=O)O)c1`: “AUC back-extrapolated observed” 32.5% and 31.5% and 28.2% (Sprague-Dawley rat; intravenous, dose not given).
`COc1ccc(C=CC(=O)O)cc1O[C@@H]1O[C@H](C(=O)O)[C@@H](O)[C@H](O)[C@H]1O` has a plasma concentration of 697 nM (human plasma; median).
For `CCN1CCN(Cc2ccc(NC(=O)c3ccc(C)c(NC(=O)c4cncc(-c5cccs5)c4)c3)cc2C(F)(F)F)CC1`, “mean plasma concentration” read 0.487 µg/mL (LC-MS/MS; C57BL/6 mouse, plasma; intraperitoneal, 10 mg/kg single dose, 0.25 h).
For `CCn1cc(C(=O)N2CCOCC2)c(=O)c2cc(NC3Cc4ccccc4C3)cnc21`, the AUC(0-last) was 22400 ng·h/mL (human, fed; oral suspension, 600 mg single dose, arithmetic mean).
`O=C1CCC(N2Cc3cc(CO)c(F)cc3C2=O)C(=O)N1` (centres unmarked) gave a plasma concentration of 0.1 ng/mL (cynomolgus monkey, male; oral, 0.3 mg/kg parent drug, 8 h).
Under “adverse events incidence”, `C=CC(=O)NC1CCN(c2ncc3ncnc(Nc4ccc(Oc5ccc6c(c5)ncn6C)c(C)c4)c3n2)CC1` is recorded as 0% (refers to: skin disorders (SOC); human male; oral, dose not given, AEs, treatment-related, on drug, CTCAE).
`CC(C)(Sc1ccncc1-c1ccc(C#N)c2ccccc12)C(=O)O` has an AUC(0-24) of 50.8 ng·h/mL (human, plasma; oral, 2.5 mg once daily, added: febuxostat 20 mg).
`CN(C(=O)n1cnc(-c2cccnc2)c1)C1CCCCC1` gave a concentration of 36 ± 7 ng/g (Wistar rat, hippocampus; oral, 10 mg/kg/day of BIA 10-2474, 4 h, repeated 5 days).
The dose excreted of `O=C1CC[C@H](N2Cc3cc(N4CCN(CC5CCN(c6ccc([C@@H]7c8ccc(O)cc8CC[C@@H]7c7ccccc7)cc6)CC5)CC4)ccc3C2=O)C(=O)N1` is reported as 94.1% (radiolabelled mass balance; Sprague-Dawley rat, male, feces; oral, 20 mg/kg, 0 to 168 h).
`C=CC(=O)Nc1cc(Nc2nccc(-c3cn(C4CC4)c4ccccc34)n2)c(OC)cc1N(C)CCN(C)C` has a PDW of 7.74 ± 0.308 fL (BALB/c nude mouse, LU0387 xenograft, blood; oral, 40 mg/kg).
`NC[C@@]1(CC(=O)O)[C@@H]2CC[C@H]3C[C@@H]2[C@@H]1C3`: “unbound Cmax increase” 13.2% (human, moderate renal impairment, plasma; dose not given; baseline: normal renal function).

Repeated from above:
For `O=C(O)CCCOc1ccc([18F])cc1-c1cc(-c2ccccc2C(F)(F)F)n(-c2ccccc2)n1`, the radioactivity uptake was 0.37 ± 0.04 SUV (gamma counting; male ddY mice, lung; intravenous, 2.1 MBq, 60 min).
